Assay results pooled from the literature.
Numbered parts are unrelated; each lists some results of a single study.
Chain of UniProt Q14012 (whole entry, looked up): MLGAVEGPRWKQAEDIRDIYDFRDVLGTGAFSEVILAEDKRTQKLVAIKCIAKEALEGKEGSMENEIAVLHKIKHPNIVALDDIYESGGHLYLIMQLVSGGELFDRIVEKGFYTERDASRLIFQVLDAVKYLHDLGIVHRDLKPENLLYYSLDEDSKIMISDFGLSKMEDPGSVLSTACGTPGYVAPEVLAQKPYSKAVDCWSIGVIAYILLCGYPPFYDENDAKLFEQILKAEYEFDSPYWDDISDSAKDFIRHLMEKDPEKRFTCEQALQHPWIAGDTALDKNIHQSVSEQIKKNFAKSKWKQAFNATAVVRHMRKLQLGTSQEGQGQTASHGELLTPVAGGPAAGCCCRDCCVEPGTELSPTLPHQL
Chain of UniProt P17948 (whole entry, looked up): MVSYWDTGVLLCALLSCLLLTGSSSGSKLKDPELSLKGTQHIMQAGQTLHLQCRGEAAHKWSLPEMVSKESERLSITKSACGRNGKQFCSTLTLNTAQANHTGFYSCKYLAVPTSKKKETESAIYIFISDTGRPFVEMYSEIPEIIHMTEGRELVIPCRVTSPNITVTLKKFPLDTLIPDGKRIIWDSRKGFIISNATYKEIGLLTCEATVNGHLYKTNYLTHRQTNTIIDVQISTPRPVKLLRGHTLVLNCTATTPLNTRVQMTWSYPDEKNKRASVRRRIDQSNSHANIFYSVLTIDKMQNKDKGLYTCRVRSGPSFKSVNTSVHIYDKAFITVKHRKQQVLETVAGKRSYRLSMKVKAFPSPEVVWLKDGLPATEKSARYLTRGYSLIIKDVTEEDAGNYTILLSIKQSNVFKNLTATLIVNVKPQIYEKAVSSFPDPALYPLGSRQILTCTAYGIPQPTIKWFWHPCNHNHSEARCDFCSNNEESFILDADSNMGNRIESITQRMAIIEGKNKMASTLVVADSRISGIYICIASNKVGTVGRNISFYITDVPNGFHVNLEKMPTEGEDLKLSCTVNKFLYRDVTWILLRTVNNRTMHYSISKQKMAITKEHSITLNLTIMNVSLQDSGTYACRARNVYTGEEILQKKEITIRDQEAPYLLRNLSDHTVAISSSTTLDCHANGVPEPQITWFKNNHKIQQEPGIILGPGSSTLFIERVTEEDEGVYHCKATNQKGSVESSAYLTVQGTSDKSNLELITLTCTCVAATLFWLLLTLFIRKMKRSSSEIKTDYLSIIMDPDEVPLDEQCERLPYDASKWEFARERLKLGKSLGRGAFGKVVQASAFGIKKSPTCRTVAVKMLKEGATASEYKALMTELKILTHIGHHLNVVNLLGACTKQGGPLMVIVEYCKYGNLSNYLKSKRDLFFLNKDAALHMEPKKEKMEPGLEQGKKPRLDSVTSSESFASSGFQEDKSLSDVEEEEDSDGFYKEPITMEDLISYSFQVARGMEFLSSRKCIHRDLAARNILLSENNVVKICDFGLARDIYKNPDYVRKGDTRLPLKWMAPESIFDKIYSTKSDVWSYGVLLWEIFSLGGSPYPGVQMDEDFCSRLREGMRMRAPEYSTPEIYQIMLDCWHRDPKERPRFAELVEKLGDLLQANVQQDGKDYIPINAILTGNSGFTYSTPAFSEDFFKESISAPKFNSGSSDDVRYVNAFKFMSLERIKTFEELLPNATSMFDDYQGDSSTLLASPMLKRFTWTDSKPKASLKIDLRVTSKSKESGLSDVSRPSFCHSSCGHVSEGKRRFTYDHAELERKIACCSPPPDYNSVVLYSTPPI
Chain of UniProt P07949 (whole entry, looked up): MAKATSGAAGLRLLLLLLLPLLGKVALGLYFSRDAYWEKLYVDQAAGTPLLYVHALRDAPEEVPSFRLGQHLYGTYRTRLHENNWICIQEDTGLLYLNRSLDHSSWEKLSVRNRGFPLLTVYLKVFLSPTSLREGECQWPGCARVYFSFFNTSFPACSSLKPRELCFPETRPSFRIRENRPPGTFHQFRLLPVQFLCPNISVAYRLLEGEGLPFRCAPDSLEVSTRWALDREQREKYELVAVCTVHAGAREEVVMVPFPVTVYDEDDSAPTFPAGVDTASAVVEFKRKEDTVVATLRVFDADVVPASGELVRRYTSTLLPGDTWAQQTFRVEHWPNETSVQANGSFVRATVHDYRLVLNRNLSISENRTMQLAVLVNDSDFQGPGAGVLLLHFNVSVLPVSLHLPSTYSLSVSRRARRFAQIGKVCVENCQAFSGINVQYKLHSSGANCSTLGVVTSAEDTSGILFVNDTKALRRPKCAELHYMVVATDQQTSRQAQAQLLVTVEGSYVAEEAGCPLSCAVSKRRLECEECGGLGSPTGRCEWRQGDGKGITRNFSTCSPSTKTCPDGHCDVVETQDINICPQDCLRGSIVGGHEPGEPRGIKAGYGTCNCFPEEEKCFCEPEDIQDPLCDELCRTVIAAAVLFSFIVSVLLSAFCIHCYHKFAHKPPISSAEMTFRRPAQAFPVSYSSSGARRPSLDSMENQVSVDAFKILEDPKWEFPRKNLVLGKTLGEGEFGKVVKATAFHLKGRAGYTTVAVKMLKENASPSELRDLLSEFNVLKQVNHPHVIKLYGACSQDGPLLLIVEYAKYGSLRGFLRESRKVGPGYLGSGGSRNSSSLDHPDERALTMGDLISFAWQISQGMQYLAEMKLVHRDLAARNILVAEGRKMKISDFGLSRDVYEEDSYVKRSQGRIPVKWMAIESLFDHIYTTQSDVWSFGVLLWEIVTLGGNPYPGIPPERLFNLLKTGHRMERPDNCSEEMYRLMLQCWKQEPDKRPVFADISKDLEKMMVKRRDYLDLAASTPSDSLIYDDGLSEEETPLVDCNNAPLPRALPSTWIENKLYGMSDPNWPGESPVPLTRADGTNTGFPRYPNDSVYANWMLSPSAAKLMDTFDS

Study 1 — effect on: kinase activity
Compound: CN(C1COC1)C(C)(C)/C=C(\C#N)C(=O)N1CCC[C@H]1Cn1nc(-c2ccc(Oc3ccccc3)cc2F)c2c(N)ncnc21
SGK3: Serine/threonine-protein kinase Sgk3 (SGK3, Homo sapiens, UniProt Q96BR1)
Chain of UniProt Q96BR1 (whole entry, looked up): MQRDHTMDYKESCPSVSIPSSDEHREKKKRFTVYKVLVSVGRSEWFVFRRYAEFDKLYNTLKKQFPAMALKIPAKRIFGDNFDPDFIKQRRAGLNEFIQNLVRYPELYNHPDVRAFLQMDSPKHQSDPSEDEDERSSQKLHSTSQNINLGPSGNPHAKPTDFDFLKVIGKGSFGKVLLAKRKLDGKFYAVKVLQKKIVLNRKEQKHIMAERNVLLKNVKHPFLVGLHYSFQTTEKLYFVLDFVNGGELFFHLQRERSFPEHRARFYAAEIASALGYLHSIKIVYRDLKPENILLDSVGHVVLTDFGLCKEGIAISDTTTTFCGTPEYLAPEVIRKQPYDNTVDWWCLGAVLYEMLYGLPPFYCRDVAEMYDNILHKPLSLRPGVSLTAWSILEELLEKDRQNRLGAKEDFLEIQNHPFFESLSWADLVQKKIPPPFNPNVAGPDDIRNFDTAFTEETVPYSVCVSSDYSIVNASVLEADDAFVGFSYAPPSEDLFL
Leucine-rich repeat serine/threonine-protein kinase 2 (LRRK2, Homo sapiens, UniProt Q5S007, G2019S); 0.1 µM — inhibition: 9%.
It gave 2% for inhibition (Calcium/calmodulin-dependent protein kinase type 1 (CAMK1, Homo sapiens, UniProt Q14012); 1 µM).
The inhibition was 38% (Proto-oncogene tyrosine-protein kinase Src (SRC, Homo sapiens, UniProt P12931); 1 µM).
The inhibition was 4% (SGK3; 1 µM).
It gave 4% for inhibition (Proto-oncogene tyrosine-protein kinase receptor Ret (RET, Homo sapiens, UniProt P07949); 0.1 µM).
It gave -3% for inhibition (Serine/threonine-protein kinase BRSK1 (BRSK1, Homo sapiens, UniProt Q8TDC3); 1 µM).
The inhibition was -2% (RAC-beta serine/threonine-protein kinase (AKT2, Homo sapiens, UniProt P31751); 1 µM).
For Dual specificity tyrosine-phosphorylation-regulated kinase 4 (DYRK4, Homo sapiens, UniProt Q9NR20); 1 µM: inhibition read 4%.
It gave -6% for inhibition (SGK3; 0.1 µM).
The inhibition was -2% (Protein kinase C zeta type (PRKCZ, Homo sapiens, UniProt Q05513); 1 µM).
For Tyrosine-protein kinase Fes/Fps (FES, Homo sapiens, UniProt P07332); 1 µM: inhibition read 22%.
The inhibition was 3% (Serine/threonine-protein kinase 24 (STK24, Homo sapiens, UniProt Q9Y6E0); 0.1 µM).
It gave 2% for inhibition (Ribosomal protein S6 kinase alpha-6 (RPS6KA6, Homo sapiens, UniProt Q9UK32); 1 µM).

Study 2 — effect on: thermal unfolding; technique: differential scanning fluorimetry; tested at: 5.5 µM; reading: higher = more unfolded
SMILES: C[C@@H]1CN(c2ccc(-c3cc(C(=O)NCCOCCOCCOCCOCCNC(=O)Cn4cc(-c5[nH]cc(C(=O)N[C@@H](CC(N)=O)c6ccc(F)c(Cl)c6)c5-c5ccc(Cl)cc5F)cn4)ccc3F)cc2NC(=O)c2c[nH]c(=O)cc2C(F)(F)F)C[C@H](C)N1C
DCAF1: DDB1- and CUL4-associated factor 1 (DCAF1, Homo sapiens, UniProt Q9Y4B6)
Chain of UniProt Q9Y4B6 (whole entry, looked up): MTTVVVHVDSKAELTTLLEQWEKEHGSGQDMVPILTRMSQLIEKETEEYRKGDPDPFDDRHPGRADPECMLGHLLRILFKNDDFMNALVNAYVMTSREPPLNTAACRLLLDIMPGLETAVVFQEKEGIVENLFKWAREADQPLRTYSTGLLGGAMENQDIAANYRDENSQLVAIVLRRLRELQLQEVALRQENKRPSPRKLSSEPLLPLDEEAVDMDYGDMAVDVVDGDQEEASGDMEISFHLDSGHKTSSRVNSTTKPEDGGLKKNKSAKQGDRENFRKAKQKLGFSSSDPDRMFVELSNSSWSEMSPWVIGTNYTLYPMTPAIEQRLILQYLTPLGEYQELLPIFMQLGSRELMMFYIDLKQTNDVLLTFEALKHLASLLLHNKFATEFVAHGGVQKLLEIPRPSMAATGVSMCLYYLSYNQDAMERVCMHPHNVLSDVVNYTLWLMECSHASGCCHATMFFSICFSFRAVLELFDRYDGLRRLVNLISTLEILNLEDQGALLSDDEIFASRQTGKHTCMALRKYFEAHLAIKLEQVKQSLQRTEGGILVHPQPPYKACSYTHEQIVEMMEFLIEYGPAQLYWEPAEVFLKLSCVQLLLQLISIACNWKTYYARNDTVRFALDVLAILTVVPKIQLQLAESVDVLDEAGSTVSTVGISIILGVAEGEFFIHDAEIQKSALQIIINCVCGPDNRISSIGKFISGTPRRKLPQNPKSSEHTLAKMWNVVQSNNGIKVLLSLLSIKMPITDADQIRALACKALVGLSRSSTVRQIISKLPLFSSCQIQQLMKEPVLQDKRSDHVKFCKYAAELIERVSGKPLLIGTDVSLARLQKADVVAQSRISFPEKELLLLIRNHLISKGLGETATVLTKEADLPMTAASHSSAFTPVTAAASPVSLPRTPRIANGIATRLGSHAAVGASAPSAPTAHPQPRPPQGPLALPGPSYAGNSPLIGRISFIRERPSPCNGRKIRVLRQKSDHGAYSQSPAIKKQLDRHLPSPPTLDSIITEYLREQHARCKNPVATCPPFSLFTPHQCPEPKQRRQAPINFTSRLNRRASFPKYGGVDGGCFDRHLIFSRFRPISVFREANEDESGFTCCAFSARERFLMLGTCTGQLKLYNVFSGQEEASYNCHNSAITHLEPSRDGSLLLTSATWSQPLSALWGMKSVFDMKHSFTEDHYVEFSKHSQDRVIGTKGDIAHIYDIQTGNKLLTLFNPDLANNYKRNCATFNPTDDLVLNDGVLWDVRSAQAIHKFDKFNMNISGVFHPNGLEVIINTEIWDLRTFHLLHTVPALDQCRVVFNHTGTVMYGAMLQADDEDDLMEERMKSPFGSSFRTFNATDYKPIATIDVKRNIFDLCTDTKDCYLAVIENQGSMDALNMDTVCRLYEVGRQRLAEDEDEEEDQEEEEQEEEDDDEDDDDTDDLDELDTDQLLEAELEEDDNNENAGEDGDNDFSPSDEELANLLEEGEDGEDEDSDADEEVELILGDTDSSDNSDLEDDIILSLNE
WDR5: WD repeat-containing protein 5 (WDR5, Homo sapiens, UniProt P61964)
The “SYPRO Orange fluorescence” was 17800 a.u. (DCAF1; 54.01 °C).
It gave 32200 a.u. for “SYPRO Orange fluorescence” (DCAF1; 58.81 °C).
WDR5; 33 °C — “SYPRO Orange fluorescence”: 14300 a.u.
It gave 11400 a.u. for “SYPRO Orange fluorescence” (DCAF1; 43 °C).
For WDR5; 67.01 °C: “SYPRO Orange fluorescence” read 7040 a.u.
DCAF1; 59.21 °C — “SYPRO Orange fluorescence”: 34000 a.u.
It gave 11100 a.u. for “SYPRO Orange fluorescence” (WDR5; 75.01 °C).

Study 3 — Structure (SMILES): O=C(Nc1ccccc1)c1cccc(Oc2ccc3nccn3n2)c1; effect on: cell-free assay; technique: competition with immobilised ligand; tested at: 1 µM
Discoidin domain-containing receptor 2 (DDR2, Homo sapiens, UniProt Q16832) — remaining binding: 58%.
It gave 55% for remaining binding (Epithelial discoidin domain-containing receptor 1 (DDR1, Homo sapiens, UniProt Q08345)).
The remaining binding was 21% (Vascular endothelial growth factor receptor 1 (FLT1, Homo sapiens, UniProt P17948)).

Study 4 — tested at: 1 µM
SMILES: CC[C@@]1(c2cccc(-c3c(F)cncc3OC)c2)C2=C(Nc3n[nH]cc31)[C@H](F)C(C)(C)CC2=O (single isomer, unassigned)
The remaining binding was 88% (Tyrosine-protein kinase Tec (TEC, Homo sapiens, UniProt P42680); kinase binding, KINOMEscan; baseline: DMSO control).
It gave 100% for remaining binding (Activin receptor type-1 (ACVR1, Homo sapiens, UniProt Q04771); kinase binding, KINOMEscan; baseline: DMSO control).
Tyrosine-protein kinase ABL1, non-phosphorylated (ABL1, Homo sapiens, UniProt P00519, F317L); kinase binding, KINOMEscan; baseline: DMSO control — remaining binding: 87%.
Serine/threonine-protein kinase TNNI3K (TNNI3K, Homo sapiens, UniProt Q59H18); kinase binding, KINOMEscan; baseline: DMSO control — remaining binding: 100%.
Casein kinase I isoform delta (CSNK1D, Homo sapiens, UniProt P48730); binding, competition with immobilised ligand — remaining binding: 97%.
5'-AMP-activated protein kinase catalytic subunit alpha-1 (PRKAA1, Homo sapiens, UniProt Q13131); kinase binding, KINOMEscan; baseline: DMSO control — remaining binding: 78%.
It gave 100% for remaining binding (Epidermal growth factor receptor (EGFR, Homo sapiens, UniProt P00533, L861Q); binding, competition with immobilised ligand).
For Cyclin-dependent kinase 15 (CDK15, Homo sapiens, UniProt Q96Q40); binding, competition with immobilised ligand: remaining binding read 96%.
The remaining binding was 100% (Mast/stem cell growth factor receptor Kit (KIT, Homo sapiens, UniProt P10721, V559D); kinase binding, KINOMEscan; baseline: DMSO control).
For Mitogen-activated protein kinase 8 (MAPK8, Homo sapiens, UniProt P45983); binding, competition with immobilised ligand: remaining binding read 56%.
Macrophage colony-stimulating factor 1 receptor, autoinhibited (CSF1R, Homo sapiens, UniProt P07333); kinase binding, KINOMEscan; baseline: DMSO control — remaining binding: 73%.
The remaining binding was 77% (Receptor-type tyrosine-protein kinase FLT3 (FLT3, Homo sapiens, UniProt P36888, D835H); binding, competition with immobilised ligand).

For quick reference, copied from above (study 3):
It gave 55% for remaining binding (Epithelial discoidin domain-containing receptor 1 (DDR1, Homo sapiens, UniProt Q08345)).
Discoidin domain-containing receptor 2 (DDR2, Homo sapiens, UniProt Q16832) — remaining binding: 58%.
The remaining binding was 21% (Vascular endothelial growth factor receptor 1 (FLT1, Homo sapiens, UniProt P17948)).
